Measured values collected from several papers.
Numbered parts are unrelated; each lists some results of a single study. Changes are numbered by the printed parent chain.

Set 1
Target: Ras GTPase-activating protein-binding protein 1, C-terminal RGG region (G3BP1, Homo sapiens, UniProt Q13283)
Chain of UniProt Q13283 (whole entry, looked up): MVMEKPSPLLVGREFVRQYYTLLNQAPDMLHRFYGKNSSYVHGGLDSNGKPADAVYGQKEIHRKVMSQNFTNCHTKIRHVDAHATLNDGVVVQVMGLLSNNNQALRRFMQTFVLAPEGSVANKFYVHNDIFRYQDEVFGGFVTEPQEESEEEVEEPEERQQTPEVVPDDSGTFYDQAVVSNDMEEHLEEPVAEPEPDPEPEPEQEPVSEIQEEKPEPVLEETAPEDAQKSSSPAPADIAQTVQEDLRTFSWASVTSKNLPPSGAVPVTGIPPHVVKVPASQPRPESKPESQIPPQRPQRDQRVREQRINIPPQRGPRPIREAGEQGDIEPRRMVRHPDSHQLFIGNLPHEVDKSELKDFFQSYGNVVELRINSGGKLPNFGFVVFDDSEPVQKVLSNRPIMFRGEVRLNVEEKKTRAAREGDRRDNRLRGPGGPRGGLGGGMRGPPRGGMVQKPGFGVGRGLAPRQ
Technique: RNA Bind-n-Seq
Molecule type: RNA
Sample: in vitro
Tested at: 1 µM
Notes: whole 134-nt RNA, ends assumed
Together with: 150 mM KCl
Baseline: input library
Reading: higher = stronger binding
Strand	log2 enrichment
GGGAGUUCUACAGUCCGACGAUCAAGUCCUGUGCUACACAUCGUAUGUACCGAAUCGGGAAAAAGGGUUUUUGGGUGGGAAAGUAUUAUGUUACGCCGUUCGGAUCUGCACUUUGGAAUUCUCGGGUGUCAAGG	0.883
GGGAGUUCUACAGUCCGACGAUCUCCUGUGCUACACAUCGUAUGUACCGAAUCGGGGCCCCCGGGGCCCCCGGGCCCCCGGGGAAAGUAUUAUGUUACGCCGUUCGGAUCUGCUGGAAUUCUCGGGUGUCAAGG	-1.83
GGGAGUUCUACAGUCCGACGAUCCACAGACAACACGCACCCACACAGACACAGAGGGAAGGGGUUGGGAUGGGGACAGGGUGCACAGCAGGGUGGGGUAGGACCCCAGCCCCUUGGAAUUCUCGGGUGUCAAGG	-0.984

Set 2
Target: RING finger protein unkempt homolog, zinc fingers 1-6, SBP tag (UNK, Homo sapiens, UniProt Q9C0B0, residues 30-357)
Chain of UniProt Q9C0B0 (30-357, looked up): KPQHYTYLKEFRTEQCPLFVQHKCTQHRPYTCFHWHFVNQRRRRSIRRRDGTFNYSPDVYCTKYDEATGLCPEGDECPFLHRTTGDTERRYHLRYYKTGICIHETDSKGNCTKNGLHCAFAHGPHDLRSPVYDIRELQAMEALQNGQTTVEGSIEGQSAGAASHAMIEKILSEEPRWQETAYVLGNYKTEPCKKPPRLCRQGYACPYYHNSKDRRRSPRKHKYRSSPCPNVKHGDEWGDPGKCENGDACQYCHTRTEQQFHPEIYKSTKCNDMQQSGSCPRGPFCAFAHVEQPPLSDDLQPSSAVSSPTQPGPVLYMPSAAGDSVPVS
Technique: RNA Bind-n-Seq
Molecule type: RNA
Sample: in vitro
Tested at: 100 nM
Notes: RNA with constant flanks, vertebrate orthologous sites, ends assumed
Baseline: input RNA pool
Reading: higher = stronger binding
Strand	bound/input enrichment [ratio]
GGGAGUUCUACAGUCCGACGAUCCUCCUCUUAAUCCCAUUUCAUCUGUUUCAUAGUGCUGAAAUUCCACCAUCAGCCUUAUUUUUAGUGAACUUAUUCUAAUUCUAGCGAAACUUCCAGCGUGGAUACUGUGAGCUAUAUGGACAACAGAGGAUUGAGCAUCA	2.37
GGGAGUUCUACAGUCCGACGAUCCCUAUAUGUAGAAAACAAUUUUCACUGAAGCCAUUGUCAGGUUUUCCCCCUAGAGUUUUGUUUGGAGCUCUUUAAUUUUAUACAAGCUUGCUGUGUUGGUUAUCAUUUCCCCAGAGUUAACAACAGAGGAUUGAGCAUCA	0.767
GGGAGUUCUACAGUCCGACGAUCAUUCAUCUCUUACUUAGUGUCCAAAAUUACUGAGGGUUUGAAACAUUCAGUAGUUUCACAUAGAGCUACAUUGGCAGGUGCUUUAAUACUAUCAUAGUGAGAUCAGAUACCAUUGUAGUACAACAGAGGAUUGAGCAUCA	0.645
GGGAGUUCUACAGUCCGACGAUCUUACAGUCAUUGAUGGACUCUAUUUUUUUAUUAUUACUUGGACCUUGGUCGUUUUUAUACUAGCAAAAAAAUGUCUUGUUUUAAUUUGUGUUUUUUGGGGGGGCGGGUGGGCGGGCGGGACAACAGAGGAUUGAGCAUCA	2.4

Mixed results
P1: GMNC docking peptide (human); KNAKRNLSSEFAN; partner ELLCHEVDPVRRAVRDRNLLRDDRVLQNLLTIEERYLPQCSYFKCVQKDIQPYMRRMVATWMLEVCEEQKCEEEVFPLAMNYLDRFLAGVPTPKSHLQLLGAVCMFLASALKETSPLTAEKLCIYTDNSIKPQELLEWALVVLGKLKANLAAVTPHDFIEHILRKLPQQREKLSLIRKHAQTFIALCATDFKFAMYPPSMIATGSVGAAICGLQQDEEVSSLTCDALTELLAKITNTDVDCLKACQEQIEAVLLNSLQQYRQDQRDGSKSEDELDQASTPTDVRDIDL
Substance	target	assay	test system	setting	scale	measurement	result
P1 E10G	CCND2, cyclin fold, Cln2 fusion (human)	yeast growth competition, sequencing	yeast	weak parent motif	baseline: not given, higher = stronger binding	normalised enrichment score	0.186
PhoQ, residues 284 288 289 292 302 303 SSCLAV	PhoP, residues 12 14 15 18 19 SPWRL (Escherichia coli, UniProt P23836)	Sort-seq, item: YFP reporter	E. coli	PhoQ-PhoP variant library, together with: 10 µM Mg2+	baseline: high Mg2+ state, higher = stronger signaling	fold induction	1.53

Excerpt of the above (set 1):
Strand	log2 enrichment
GGGAGUUCUACAGUCCGACGAUCUCCUGUGCUACACAUCGUAUGUACCGAAUCGGGGCCCCCGGGGCCCCCGGGCCCCCGGGGAAAGUAUUAUGUUACGCCGUUCGGAUCUGCUGGAAUUCUCGGGUGUCAAGG	-1.83
